Measured values gathered from unrelated publications.
Protocols differ between the studies behind these lines. “And” joins repeats or separate records; there may be more than shown. ± gives the spread as reported.
Organism: Salmonella typhimurium

Nc1c2ccccc2nc2ccccc12.Nc1c2ccccc2nc2ccccc12.O — revertant fold increase (TA1537; 50 µg/plate, with: without S9; relative to: vehicle control): 23.2
OC(CCN1CC=C(c2ccc(F)cc2)CC1)c1ccc(F)c2ccccc12 (stereo not shown) — survival (SOS/umu test; TA1535/pSK1002; 0.004 mg/mL, 4 h, with S9, full range): 96.2%
CC(C)N(N=O)C(C)C — revertant colonies per plate (mutagenicity, Ames plate incorporation; TA98; 1500 µg/plate, without S9, methanol): 31.3 ± 8
Fc1ccc(C2=CCNCC2)cc1 — survival (SOS/umu test; TA1535/pSK1002; 0.002 mg/mL, 4 h, without S9, full range): 97.3%
Cc1cc(C(=O)NC(C)(C)COc2cccc3c2C(N)=NS(=O)(=O)N3)cc(C)n1 — revertant ratio (Ames test, initial; TA1535; 15.0 µg/plate; relative to: solvent control): 1.1
O=[N+]([O-])c1ccc(N2CCC(NCCC(O)c3ccc(F)c4ccccc34)CC2)c(C(F)(F)F)c1 (stereo not shown) — induction factor (SOS/umu test; TA1535/pSK1002; 6.1e-05 mg/mL, 4 h, without S9; relative to: untreated): 0.6
O=[N+]([O-])c1ccc2c(c1)Cc1ccccc1-2 — mean revertants per plate (TA98; 1 µg/plate, with: without S9): 193 revertants/plate
O=[N+]([O-])c1ccc(NC2CCNCC2)c(C(F)(F)F)c1 — survival (SOS/umu test; TA1535/pSK1002; 0.002 mg/mL, 4 h, with S9, full range): 115%
CNC(=O)c1c(N(C)N=O)ncn1C — revertant colonies per plate (mutagenicity, Ames plate incorporation; TA1537; 5000 µg/plate, without S9, methanol): 10.7 ± 2
CC(=O)N1CCC(C(=O)N2CCN3C(=O)c4cc(-c5ccccc5)ccc4NC(=O)C3C2)CC1 (stereo not shown) — revertants per plate (TA1535; 5000 µg/plate): 19
N#C[C@@]1(n2ccc(N)nc2=O)O[C@H](CO)[C@@H](O)[C@H]1O — viability (TA1537; 100 µM, without S9): 93%
CN(CC(C)(C)C)N=O — revertant colonies per plate (mutagenicity, Ames plate incorporation; TA100; 1500 µg/plate, without S9, methanol): 196 ± 13
O=[N+]([O-])c1ccc(N2CCN(CCC(O)c3ccc(F)cc3)CC2)c(C(F)(F)F)c1 (stereo not shown) — survival (SOS/umu test; TA1535/pSK1002; 0.008 mg/mL, 4 h, with S9, lower range): 119%
COc1cccc(-c2n[nH]c(SCc3ccccn3)n2)c1OC — revertant colonies per plate (Ames test, plate incorporation; TA1535; 1.0 mg/plate, with rat liver S9): 17
Nc1ccc2cc3ccccc3cc2c1 — revertant ratio (Ames test, confirmatory; TA100; 2.0 µg/plate, with: rat liver S9; relative to: solvent control): 4
[N-]=[N+]=[N-].[Na+] — revertant colonies (Ames test; TA1535; 0.3 µg/well, without S9): 240 colonies/well and 224 colonies/well and 272 colonies/well
